# Measured values from different studies.
# Each line is one published result; not all experiments were run side by side. “And” joins repeats or separate records; there may be more than shown. Numbers after ± are the reported error.
# Organism: Staphylococcus aureus
SMILES,test,test system,conditions,scale,endpoint,result
CCCNC(=O)[C@H](Cc1ccc(O)cc1)NC(=O)[C@H](Cc1ccccc1)NC(=O)[C@H](NC(=O)[C@H](NC(=O)[C@H](CC(N)=O)NC(=O)[C@@H](Cc1ccc(O)cc1)NC(=O)[C@@H](CC(C)C)NC)c1ccccc1)c1ccc(O)cc1,bacterial growth,,,,IC50,> 40 µM
CC(C)[C@H]1NC(=O)[C@H](Cc2ccccc2)NC(=O)[C@@H](C(C)C)NC(=O)[C@@H](C)NC(=O)[C@H](CO)NC(=O)[C@@H](Cc2c(-c3ccc(-c4ccc(-c5ccccc5)cc4)cc3)[nH]c3ccccc23)NC(=O)[C@@H](C)NC1=O,broth dilution,,,,MIC90,> 50 µM
CC[C@H](C)[C@@H]1NC(=O)[C@@H](CCCNC(=N)N)NC(=O)[C@@H](NC(=O)[C@@H](CC(C)C)NC(=O)[C@H](C)NC(=O)[C@H](C)NC(=O)[C@@H]2CCCN2C(=O)[C@@H](CC(C)C)NC(=O)[C@@H](NC(=O)[C@@H](CCCNC(=N)N)NC(=O)[C@@H](CC(C)C)NC(=O)[C@@H](CC(C)C)NC(=O)[C@@H](NC(=O)[C@@H](CCCNC(=N)N)NC(=O)[C@@H](CC(C)C)NC(=O)[C@@H](NC(=O)[C@@H](NC(=O)CNC(=O)[C@@H](CC(C)C)NC(=O)[C@@H](N)Cc2ccccc2)[C@@H](C)O)C(C)C)C(C)C)C(C)C)CSSC[C@@H](C(=O)O)NC(=O)[C@@H](CCCNC(=N)N)NC(=O)[C@@H](CCCNC(=N)N)NC(=O)[C@H](Cc2ccccc2)NC1=O,resazurin reduction,MRSA NCTC 12493,,,respiration-enhancing concentration,8 µM
CC[C@H](C)[C@@H]1NC(=O)[C@H](CO)NC(=O)C(C)(CCCCN)NC(=O)[C@@H]2CSSC[C@@H](C(=O)N[C@@H](Cc3ccc(O)cc3)C(N)=O)NC(=O)[C@H](CCCCN)NC(=O)[C@@H]3CSSC[C@H](NC(=O)[C@H](CCCNC(=N)N)NC(=O)C(C)(CC(C)C)NC(=O)[C@H](CC(=O)O)NC(=O)[C@H](CC(=O)O)NC(=O)[C@H](CCC(=O)O)NC(=O)[C@H](CC(N)=O)NC(=O)[C@H](Cc4c[nH]c5ccccc45)NC(=O)C(C)(CC)NC(=O)CNC(=O)[C@H](CC(N)=O)NC(=O)[C@@H](NC(=O)CNC(=O)[C@H](Cc4ccccc4)NC(=O)CN)CSSC[C@H](NC(=O)[C@H](Cc4ccc(O)cc4)NC(=O)CNC(=O)CNC(=O)[C@H](CCCCN)NC(=O)[C@H](Cc4ccc(O)cc4)NC(=O)[C@H]4CCCN4C(=O)[C@@H]4CCCN4C1=O)C(=O)N[C@@H](C)C(=O)N[C@@H](CCCCN)C(=O)N1CCC[C@@H]1C(=O)NCC(=O)N[C@@H](Cc1ccccc1)C(=O)N[C@@H](C(C)C)C(=O)N3)C(=O)N[C@@H](Cc1c[nH]cn1)C(=O)NC(C)(C)C(=O)N[C@@H](Cc1c[nH]cn1)C(=O)N2 (stereo partly shown),,ATCC 49775,24 h,,MBC,2 µM
CCCC(=O)OCCSCCC(=O)N[C@H](CCN)C(=O)N[C@@H](CCN)C(=O)N[C@@H](CCN)C(=O)N[C@@H](CC(C)C)C(=O)N[C@H](Cc1ccccc1)C(=O)N[C@@H](CCN)C(=O)N[C@@H](CCN)C(=O)N[C@@H](CC(C)C)C(N)=O,,ATCC 6538,"24 h, 37 °C",,MBC,128 µM
CC(=O)N[C@@H](CC(C)C)C(=O)N[C@H]1CSSC[C@@H](C(=O)N2CCC[C@H]2C(N)=O)NC(=O)[C@H]([C@@H](C)O)NC(=O)[C@H](C(C)C)NC(=O)[C@H]([C@@H](C)O)NC(=O)CNC(=O)[C@H](CC(C)C)NC(=O)[C@H](Cc2ccccc2)NC(=O)[C@H](Cc2ccc(O)cc2)NC(=O)[C@H](CC(C)C)NC(=O)[C@H](CCCCN)NC(=O)[C@H](Cc2ccccc2)NC(=O)[C@H](CCCNC(=N)N)NC(=O)[C@H](CCC(N)=O)NC(=O)[C@H](CC(C)C)NC(=O)[C@H](CCCCN)NC(=O)[C@@H]2CCCN2C(=O)[C@H](CCCCN)NC(=O)[C@H](C(C)C)NC(=O)[C@H](CCCCN)NC(=O)[C@H](Cc2ccc(O)cc2)NC(=O)[C@H]([C@@H](C)O)NC1=O,,,"2.5 µM, 2 h, 37 °C",relative to: untreated,killed bacteria,38.7%
CC(C)[C@H]1NC(=O)[C@H](Cc2ccccc2)NC(=O)[C@@H](C(C)C)NC(=O)[C@@H](C)NC(=O)[C@H](CO)NC(=O)[C@@H](Cc2c(-c3ccc(C4CCCCC4)cc3)[nH]c3ccccc23)NC(=O)[C@@H](CO)NC1=O,broth dilution,,,,MIC90,> 50 µM
N=C(N)NCCC[C@H](NC(=O)[C@H](CCCNC(=N)N)NC(=O)[C@H](CCCNC(=N)N)NC(=O)[C@H](CCC(N)=O)NC(=O)[C@H](CCCNC(=N)N)NC(=O)[C@H](CCCNC(=N)N)NC(=O)[C@H](CCCCN)NC(=O)[C@H](CCCCN)NC(=O)[C@H](CCCNC(=N)N)NC(=O)CNC(=O)[C@H](Cc1ccc(O)cc1)NC(=O)[C@H](Cc1ccccc1)NC(=O)[C@H](Cc1ccccc1)NC(=O)[C@H](Cc1ccccc1)NC(=O)OCC1c2ccccc2-c2ccccc21)C(=O)O,colony counting,"RAW264.7 29213 infected, 29213","32 µM, 4 h",,intracellular bacteria killed,98.3%
CC1COC2=C1C(=O)C(=O)c1c2ccc2c1C(OC(=O)CNC(=O)C(N)CO)CCC2(C)C (mixture of isomers),,,"10 µmol/mL, 48 h, 10 µL on 6 mm disc",,inhibition zone diameter,25 ± 0.9 mm
CC[C@H](C)[C@H](NC(=O)[C@H](CC(C)C)NC(=O)[C@H](CC(=O)O)NC(=O)[C@H](CCCNC(=N)N)NC(=O)[C@H](Cc1c[nH]c2ccccc12)NC(=O)[C@@H](N)CC(C)C)C(=O)N[C@@H](CS)C(=O)N[C@@H](CC(C)C)C(=O)N[C@@H](CS)C(=O)N[C@@H](CCCNC(=N)N)C(=O)N[C@@H](CC(N)=O)C(=O)N[C@@H](CCCNC(=N)N)C(=O)N[C@@H](CCCNC(=N)N)C(=O)N[C@@H](CS)C(=O)N[C@@H](CC(N)=O)C(=O)N[C@@H](CCCNC(=N)N)C(=O)NCC(=O)N[C@@H](CCC(N)=O)C(=O)N[C@@H](CC(C)C)C(=O)N[C@@H](Cc1ccccc1)C(=O)N1CCC[C@H]1C(=O)NCC(=O)N[C@@H](Cc1c[nH]c2ccccc12)C(=O)N[C@@H](CS)C(=O)N1CCC[C@H]1C(=O)NCC(=O)N[C@@H](Cc1c[nH]c2ccccc12)C(=O)N[C@@H](Cc1c[nH]c2ccccc12)C(=O)N[C@@H](CC(C)C)C(=O)N[C@@H](CCCNC(=N)N)C(=O)N[C@@H](CS)C(=O)N[C@@H](CS)C(=O)N[C@@H](CCCNC(=N)N)C(=O)N[C@@H](CCCNC(=N)N)C(N)=O,colony count,,"30 µg/mL, 2 h, 37 °C, pretreated pepsin gastric fluid, together with: pepsin 1 mg/mL",,bactericidal rate,~95%
OB(O)c1ccc(C(F)(F)F)s1,OD600,USA300 fphE::Tn transposon mutant,10 µM,relative to: wild type,growth,70.9% and 55.5% and 74.7% and 71.1% and 67.7% and 59.8%
CC[C@H](C)[C@@H]1NC(=O)[C@H](CO)NC(=O)[C@H](CCCCN)NC(=O)[C@@H]2CSSC[C@@H](C(=O)N[C@@H](Cc3ccc(O)cc3)C(N)=O)NC(=O)[C@H](CCCCN)NC(=O)[C@@H]3CSSC[C@H](NC(=O)[C@H](CCCNC(=N)N)NC(=O)[C@H](CC(C)C)NC(=O)[C@H](CC(=O)O)NC(=O)[C@H](CC(=O)O)NC(=O)[C@H](CCC(=O)O)NC(=O)[C@H](CC(N)=O)NC(=O)[C@H](Cc4c[nH]c5ccccc45)NC(=O)C(C)(CC)NC(=O)CNC(=O)[C@H](CC(N)=O)NC(=O)[C@@H](NC(=O)CNC(=O)[C@H](Cc4ccccc4)NC(=O)CN)CSSC[C@H](NC(=O)[C@H](Cc4ccc(O)cc4)NC(=O)CNC(=O)CNC(=O)[C@H](CCCCN)NC(=O)[C@H](Cc4ccc(O)cc4)NC(=O)[C@H]4CCCN4C(=O)[C@@H]4CCCN4C1=O)C(=O)N[C@@H](C)C(=O)N[C@@H](CCCCN)C(=O)N1CCC[C@@H]1C(=O)NCC(=O)N[C@@H](Cc1ccccc1)C(=O)N[C@@H](C(C)C)C(=O)N3)C(=O)N[C@@H](Cc1c[nH]cn1)C(=O)N[C@@H](CC(N)=O)C(=O)N[C@@H](Cc1c[nH]cn1)C(=O)N2 (stereo partly shown),,ATCC 49775,24 h,,MBC,2 µM
Cc1ccc2nc(C)c(CC(=O)NCc3ccc(N(C)C)cc3)n2c1,microbial growth,SG511,"2 mM, 20 h",,inhibition zone,0 mm

# Some of these lines once more:
SMILES,test,test system,conditions,scale,endpoint,result
CC(C)[C@H]1NC(=O)[C@H](Cc2ccccc2)NC(=O)[C@@H](C(C)C)NC(=O)[C@@H](C)NC(=O)[C@H](CO)NC(=O)[C@@H](Cc2c(-c3ccc(-c4ccc(-c5ccccc5)cc4)cc3)[nH]c3ccccc23)NC(=O)[C@@H](C)NC1=O,broth dilution,,,,MIC90,> 50 µM
